Measured values from different studies.
A part holds a random share of what one study measured.

Series 1
Target: Histone acetyltransferase KAT6A, winged helix 1, GST fusion (KAT6A, Homo sapiens, UniProt Q92794, residues 1-85)
Technique: protein binding microarray
Molecule type: double-stranded DNA, one strand shown
Matrix: in vitro
Tested at: not given
Setting: 8-mer, flanks averaged, mean of 2 arrays, mostly near background
Baseline: not given
Direction: higher = stronger binding
Residues (chain): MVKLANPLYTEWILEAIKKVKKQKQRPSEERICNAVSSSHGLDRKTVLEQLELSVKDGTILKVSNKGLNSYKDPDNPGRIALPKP
Oligonucleotide	E-score
CAGTCCAG	-0.162
ACTCGAAC	-0.167
ATCACCAT	-0.0225
AACCTGGA	-0.249
ACTGACAC	-0.0352
ATCGAACG	0.0325
ATTAATAG	-0.126
ACTGCCAC	-0.141
TCAAAAGA	-0.0348
ATAATAAT	-0.12
CTAGTGGA	-0.198
CGTCAAAA	-0.00302
AGTACAGG	-0.115
GGAGGGGA	-0.0765
AATCTGGC	-0.113
AACATTAT	-0.173
AACCTCGG	-0.00889
CTGTAAGC	-0.0315
GTTAGTCA	0.15
GACCGCGC	0.397
AGATGTCA	-0.0538

Series 2
Target: RNA binding protein fox-1 homolog 2, RRM domain, GST-SBP tag (RBFOX2, Homo sapiens, UniProt O43251-10, residues 100-194)
Technique: RNA Bind-n-Seq
Molecule type: RNA
Matrix: in vitro
Tested at: 365 nM
Setting: natural RNA segment, single round, ends assumed
Baseline: no-protein control
Direction: higher = stronger binding
All sequences stand within: GGGAGUUCUACAGUCCGACGAUC … UGGAAUUCUCGGGUGCCAA
Residues (chain): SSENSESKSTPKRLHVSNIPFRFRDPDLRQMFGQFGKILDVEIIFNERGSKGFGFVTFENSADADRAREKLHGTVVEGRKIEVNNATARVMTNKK
Oligonucleotide	RBNS enrichment (R)
UCUCCCAACGAUUUCAGAACUCUGAGCUCAGAGAGACUCCAGAUUUUAAAAAAUAAUUUGAGUGCUUGGAAACUAUUAGCUUUUUAAGUUCCUUCCAAAUAUGUUAGUAC	0.324
GACCGCAGCUUCUGGAGCCAGGGGUGCAGACCCUUCCAGAGUUCCCAGACCGUGUGACACAGCACAGCCUCCUUAAUGACACGUUGCCAUGUAACGCACCUGUAACUUAU	0.413
CAGGAAAUGAUACCCAGAACUAUGAUCGUGAUAGAGUCGAGUGUCCAACUACCUUCACAGCACCCAGUGAUCAAGGUGAUGACGGUUGAGAACCUGAAAGUGCAUACUGA	0.404
UCAAACUGCUGGAAAUCUCAAAACUGUACUGUCUUUAUUUUUGUAUAUUGUAUUUAUAUAUAAAAAGAAACGUCUACGUAUGCAUGCUAAAUUAUUAUUUAGCUUCUCCC	1.5
UAUGCAUGUUACCUUAUGUGUAUUUAAUCAUGAAACUUAAUUUUUGCACACUUGUUUGUACUGUUUUCUUUGAAAUAAAAGUGACUAAUUUUGUCGUACUCUAUCUGUAA	21.4
AAUUCCUAUAUUUUCAGUGGAUUCAAACUCUUUCUGAGGUUUUAAUGCGUGAAAGGAGCAGAGAAAUUAGGAAUCAGGGAAAAUUCAGUUAAAAGACUAGCAUCAGUAGG	1.14
CUUUUUUUCUUUUUUGCCUUUUAUUCCUUUAAAAUUUCGCCUGGCAAAAAAUAAAUAAAUGGAACUAUCACUUUAUAAGAAUCAUUUUCUAGUAAUGCAAACAAAUUAUU	1.23
UAUUUGUGUGGAUUCUGCUCAUCACUGUCUCUGUUAGACUUAUUUUGUAGUGGCUGCAUCACAUAUUUUUCACUUGAAUUUUUUUGGAAAUAGCUGAAUGUAAAUAGCAG	1.34
UCACACAGGUUCCCCUUGUACAUACAUGCACAUACACACCCAAACACACAUAGAGGACUCUGGAGCCGCAGUGGGACAGCCCUGCCUGCUUGUUCUUCUGAACUUGGGGA	1.32
AAGCAUAUCUAUUAAUAAUUCCCCCAAUUUUUUAAACUAACAAAAUGGAAUGUUAACUGAAUGGAAUUAAACAUAGCAAUUGUCAAGCCAUCAAAAUUAUAUAUCGAACC	0.593
UUGCCUGGGCCUUCUGCCUUAUACUUUGGGAUAAAUGGGGUGUAGGGGAUAUAUUCACUACUUUGGGAUACCCCCAAACCUGUUCUGACGUCGUGAGUGUCAAAUGUGUC	0.303
ACUCAUAACAAUUUCCUGUGCCAUUCUCUGUACACAGAGGUGAUUCAUUUACUCUCCCAUUAGUAGAACUUGCACUUUGGGCUGUCUGUUCUAGUAUUUGGGAAGUGUUU	0.38

Series 3
Target: Prothrombin, mature alpha-thrombin (F2, Homo sapiens, UniProt P00734)
Technique: aptamer microarray, sandwich
Molecule type: DNA with 2'F-ANA
Matrix: in vitro
Tested at: 200 nM
Setting: whole 15-mer aptamer, many near background
With: Cy3 exosite-II aptamer, 400 nM
Direction: higher = stronger binding
Oligonucleotide: GGTTGGTGTGGTTGG
Modification	mean fluorescence intensity [a.u.]
2'F-ANA at 1 2 3 7 8 10 12 13 15	109
2'F-ANA at 1 2 4 5 10 11 12 13 14 15	45
2'F-ANA at 2 6 7 9 10 11	115
2'F-ANA at 1 4 5 7 8 10 11 13 14 15	49.3
2'F-ANA at 2 4 5 6 8 10 11 12 13 14	48.8
2'F-ANA at 1 2 5 6 7 11 12 13 14	51.6
2'F-ANA at 2 4 5 6 8 9 11 12	120
2'F-ANA at 2 4 5 10 11 12 13	50.1
2'F-ANA at 3 6 7 11 13 15	787
2'F-ANA at 2 3 4 6 9 11 12 14	259
2'F-ANA at 1 5 6 7 10 11 12 13	49.5
2'F-ANA at 1 4 5 8 11	51.1
2'F-ANA at 1 4 5 8 12 14 15	44
2'F-ANA at 1 3 4 7 8 9 10 11 12 15	97
2'F-ANA at 1 2 6 7 9 10	53.1
2'F-ANA at 6 11 13	383

Series 4
Target: Interferon regulatory factor 5, full length, phosphomimetic (IRF5, Homo sapiens, UniProt Q13568-2, residues 1-514, S451D/S453D/S456D/S462D)
Technique: protein-binding microarray
Molecule type: double-stranded DNA, one strand shown
Matrix: in vitro
Tested at: 940 nM top
Setting: 60-bp whole probe
With: salmon DNA 0.4 mg/ml
Baseline: random background probes
Direction: higher = stronger binding
All sequences stand within: GCCTAGCAC … GTCTTGATTCGCTTGACGCTGCTG
Oligonucleotide	fitted relative affinity [z-score]
TTAGGTCTCGGTATCGGTTTGTGCTAG	7.14
GACGGACTGGGGTTTCGGAACGTGCTA	2.29
TTAGGTTTCGGCCTGGGTTAGTGCTAG	9.94
GACGACTTCGGGTTTCGAGACGTGCTA	1.62
TTAGATTGCAGTATCGATTAGTGCTAG	3.97
TTAGGTCTCCTACTACTTTAGTGCTAG	-0.0147
TTAAGTTTCGACTTTCGGTTAGTGCTA	9.13
GACGGTCTCCTTTTCCTCACGTGCTAG	0.588
TTAGGTCTCGCTATCGGTTAGTGCTAG	1.98
GACGATTCCAGTTTCGAGACGTGCTAG	4.69
GACGGTTTCGAAACTGGGGACGTGCTA	7.43
CTAGGTTTCGGTTCCGGTTAGTGCTAG	13.9
TCACCATTGGTCTTCACACTGTGCTAG	0.346
TTAAGTATCGGTTTCGGTTAGTGCTAG	13.4
GGCATTTTTTTTATCAATCAGTGCTAG	0.359
GACGGTTTCGGCTATCGGGACGTGCTA	8.51
GAGGGTCTCGGTTTCGGGACGTGCTAG	5.34
GACGGTTTCCTTCTCCTTACGTGCTAG	1.67
GACGGACTAGGACTGGGGACGTGCTAG	-0.73
TCAGGTCTCTAACTCAAACTGTGCTAG	0.0551
CTAGATATCGGGTTTCGATTAGTGCTA	5.12
GACCGACTGCTTTTCCTGACGTGCTAG	0.236
GACGATATCGGGTATAGAGACGTGCTA	-0.174
CAGGGTTTCAGATGCGTGAGGTGCTAG	1.06
TTAGGTTTCGAGTTTCGGTTAGTGCTA	10.2

Series 5
Target: Protein C-ets-1 (ETS1, Homo sapiens, UniProt P14921, residues 1-441, Y397A, full length assumed)
UniProt P14921, sequence (whole entry, unmodified, looked up): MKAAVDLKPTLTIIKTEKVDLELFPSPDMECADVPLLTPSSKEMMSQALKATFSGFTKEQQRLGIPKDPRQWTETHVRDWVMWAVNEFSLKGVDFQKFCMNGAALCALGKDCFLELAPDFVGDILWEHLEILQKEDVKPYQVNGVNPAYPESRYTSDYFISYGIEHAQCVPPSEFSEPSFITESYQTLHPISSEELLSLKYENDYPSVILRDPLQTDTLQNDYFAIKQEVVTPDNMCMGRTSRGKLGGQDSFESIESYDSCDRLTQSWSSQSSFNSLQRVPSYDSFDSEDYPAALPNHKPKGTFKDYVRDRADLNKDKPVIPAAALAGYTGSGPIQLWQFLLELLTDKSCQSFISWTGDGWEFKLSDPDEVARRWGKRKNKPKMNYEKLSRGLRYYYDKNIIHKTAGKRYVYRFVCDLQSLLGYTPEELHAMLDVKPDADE
Technique: protein-binding microarray
Molecule type: double-stranded DNA, one strand shown
Matrix: in vitro
Tested at: not given
Setting: k-mer, scored over probes, only values ≥0.25
Direction: higher = stronger binding
Oligonucleotide	E-score
GACAATCA	0.268
TTCGACAA	0.253
GAACATCC	0.285
GTTTGCTA	0.303
CGACAACA	0.378
ACGCAACA	0.321
CAGTTTGC	0.268
ACCTCCCC	0.271
GAGTGACA	0.317
CATGTACG	0.315
CGATTGCC	0.277
GTATGACA	0.297
GCCCGCCC	0.274
TGTGTCAA	0.279
AACCGACA	0.279

Some of these lines once more (series 1):
Oligonucleotide	E-score
CAGTCCAG	-0.162
ACTCGAAC	-0.167
ATCACCAT	-0.0225
AACCTGGA	-0.249
ACTGACAC	-0.0352
ATCGAACG	0.0325
ATTAATAG	-0.126
ACTGCCAC	-0.141
